Assay results of several laboratories.
Protocols differ between the studies behind these lines.
Organism: Pseudomonas aeruginosa

SMILES | test | system | conditions | MIC
C=C/C=C(\C)CC[C@@H]1C[C@@H](O)CC(=O)O1 | broth microdilution | KCCM 11321 | 16 h, 37 °C, Mueller-Hinton broth | 64 µg/mL
[H]/N=C(/N)N[C@H]1[C@H](O)[C@@H](O)[C@H](O[C@@H]2O[C@@H](C)[C@](O)(C=O)[C@H]2O[C@@H]2O[C@@H](CO)[C@H](O)[C@@H](O)[C@@H]2NC)[C@@H](N/C(N)=N\[H])[C@@H]1O | – | CIP 27853, Mueller Hinton broth | overnight, 37 °C | > 512 µg/mL
CO[C@@H](C(N)=O)[C@H](NC(=O)c1ccc(NC(=O)c2ccc(C#N)cc2)cc1)C(=O)Nc1ccc(C(=O)Nc2ccc(C(=O)Nc3ccc(C(=O)O)cc3)c(O)c2OC(C)C)cc1 | – | PA14 ΔmexAB | – | < 0.03 µg/mL
CC1(C)S[C@@H]2[C@H](NC(=O)[C@H](N)c3ccccc3)C(=O)N2[C@H]1C(=O)O | – | ATCC 27853 | 18 h, 37 °C, LED irradiation 10 min | > 128 µM
CC(C)(O/N=C(\C(=O)N[C@@H]1C(=O)N2C(C(=O)[O-])=C(C[n+]3ccccc3)CS[C@H]12)c1csc(N)n1)C(=O)O | – | S13-35 PER-producing isolate | – | > 128 µg/mL
CC[C@H](C)CCCCC(=O)N[C@@H](CCN)C(=O)N[C@H](C(=O)N[C@@H](CCN)C(=O)N[C@H]1CCNC(=O)[C@H]([C@@H](C)O)NC(=O)[C@H](CCN)NC(=O)[C@H](CCN)NC(=O)[C@H](CC(C)C)NC(=O)[C@@H](CC(C)C)NC(=O)[C@H](CCN)NC1=O)[C@@H](C)O | broth microdilution | ATCC 17978, cation-adjusted Mueller-Hinton broth | – | 0.214 µM
CCN1CCN(C(=O)N[C@@H](C(=O)N[C@@H]2C(=O)N3[C@@H]2SC(C)(C)[C@@H]3C(=O)O)c2ccccc2)C(=O)C1=O | – | PER-producing clinical isolate | – | > 128 µg/mL
Cc1cc(C(=O)Nc2ccc(C(=O)N[C@@H](CC(N)=O)C(=O)Nc3ccc(C(=O)Nc4ccc(C(=O)Nc5ccc(C(=O)O)cc5)c(O)c4OC(C)C)cc3)cc2)ccc1C#N | – | PA14 ΔmexAB | – | 0.5 µg/mL
CNC(C)C1CCC(N)C(OC2C(N)CC(N)C(OC3OCC(C)(O)C(NC)C3O)C2O)O1 (stereo not shown) | – | clinical isolate RKI-No_496/15 | – | 4 µg/mL
CC(C)C[C@@H]1NC(=O)[C@@H](Cc2ccccc2)NC(=O)[C@H](CCN)NC(=O)[C@@H](NC(=O)[C@H](CCN)NC(=O)[C@@H](N)[C@@H](C)O)CCNC(=O)[C@H]([C@@H](C)O)NC(=O)[C@H](CCN)NC(=O)[C@H](CCN)NC1=O | – | ATCC 27853 | compound alone | 50 µg/mL
Oc1c(Br)cc(Br)c2nc3ccccc3nc12 | – | – | – | > 100 µM
O=C(Cc1ccccc1)N[C@@H]1C(=O)N2C(C(=O)O)=C(CSc3cccc4cccnc34)C[S+]([O-])[C@H]12 (stereo partly shown) | – | – | – | > 128 µg/mL
CNC(C)C1CCC(N)C(OC2C(N)CC(N)C(OC3OCC(C)(O)C(NC)C3O)C2O)O1 (stereo not shown) | broth microdilution, absorbance | clinical isolate P.A11, RPMI with 1640% FBS | 24 h, 37 °C | 0.78 µM
N=C(N)c1ccc(OCc2cccc(COc3ccc(C(=N)N)cc3)c2)cc1 | – | ATCC 27853 | compound alone | > 200 µg/mL
CN(C)c1ccc2nc3ccc(=[N+](C)C)cc-3sc2c1 | – | ATCC 27853 | 18 h, 37 °C, dark | > 128 µM
C[C@H](N)C(=O)N[C@H](C(=O)N[C@@H](CS)C(=O)N[C@@H](Cc1ccc(O)cc1)C(=O)N[C@@H](CS)C(=O)N[C@@H](CCCNC(=N)N)C(=O)N[C@H](C(=O)NCC(=O)N[C@@H](CCCNC(=N)N)C(=O)N[C@@H](CS)C(=O)N[C@@H](C)C(=O)N[C@H](C(=O)N[C@@H](CCCNC(=N)N)C(=O)O)[C@@H](C)O)[C@@H](C)O)[C@@H](C)O | broth turbidity | ATCC 27853 | – | > 100 µM
N=C(N)c1ccc(OCc2ccc(-c3ccccc3)cc2COc2ccc(C(=N)N)cc2)cc1 | – | ATCC 27853 | compound alone | 100 µg/mL
CCO/N=C(\C(=O)N[C@@H]1C(=O)N2C(C(=O)[O-])=C(Sc3nc(-c4cc[n+](C)cc4)cs3)CS[C@H]12)c1nsc(NP(=O)(O)O)n1 | broth microdilution | clinical isolate, Mueller-Hinton broth | 24 h, 37 °C | > 400 µM
c1ccc(OCCn2c(CNCC34CC5CC(CC(C5)C3)C4)nc3ccccc32)cc1 | – | ATCC 27853 | – | > 128 µg/mL
NC[C@H]1O[C@H](O[C@H]2[C@H](O)[C@@H](O[C@H]3O[C@H](CO)[C@@H](O)[C@H](N)[C@H]3O)[C@H](N)C[C@@H]2N)[C@H](O)[C@@H](O)[C@@H]1O | broth microdilution | PA14 | – | 110 µM
CC1(C)S[C@@H]2[C@H](NC(=O)[C@H](N)c3ccccc3)C(=O)N2[C@H]1C(=O)O | – | CIP 27853, Mueller Hinton broth | overnight, 37 °C | 64 µg/mL
CC(C)(CN)CNCc1nc2ccccc2n1CCOc1ccccc1 | – | ATCC 27853 | – | > 128 µg/mL

Some of these lines once more:
SMILES | test | system | conditions | MIC
C=C/C=C(\C)CC[C@@H]1C[C@@H](O)CC(=O)O1 | broth microdilution | KCCM 11321 | 16 h, 37 °C, Mueller-Hinton broth | 64 µg/mL
[H]/N=C(/N)N[C@H]1[C@H](O)[C@@H](O)[C@H](O[C@@H]2O[C@@H](C)[C@](O)(C=O)[C@H]2O[C@@H]2O[C@@H](CO)[C@H](O)[C@@H](O)[C@@H]2NC)[C@@H](N/C(N)=N\[H])[C@@H]1O | – | CIP 27853, Mueller Hinton broth | overnight, 37 °C | > 512 µg/mL
CO[C@@H](C(N)=O)[C@H](NC(=O)c1ccc(NC(=O)c2ccc(C#N)cc2)cc1)C(=O)Nc1ccc(C(=O)Nc2ccc(C(=O)Nc3ccc(C(=O)O)cc3)c(O)c2OC(C)C)cc1 | – | PA14 ΔmexAB | – | < 0.03 µg/mL
CC1(C)S[C@@H]2[C@H](NC(=O)[C@H](N)c3ccccc3)C(=O)N2[C@H]1C(=O)O | – | ATCC 27853 | 18 h, 37 °C, LED irradiation 10 min | > 128 µM
